# Measured values pooled from the literature.
# Protocols differ between the studies behind these lines. ± gives the spread as reported.
# Target: Glucagon-like peptide 1 receptor (GLP1R, Homo sapiens, UniProt P43220)
# UniProt P43220, sequence (whole entry, looked up): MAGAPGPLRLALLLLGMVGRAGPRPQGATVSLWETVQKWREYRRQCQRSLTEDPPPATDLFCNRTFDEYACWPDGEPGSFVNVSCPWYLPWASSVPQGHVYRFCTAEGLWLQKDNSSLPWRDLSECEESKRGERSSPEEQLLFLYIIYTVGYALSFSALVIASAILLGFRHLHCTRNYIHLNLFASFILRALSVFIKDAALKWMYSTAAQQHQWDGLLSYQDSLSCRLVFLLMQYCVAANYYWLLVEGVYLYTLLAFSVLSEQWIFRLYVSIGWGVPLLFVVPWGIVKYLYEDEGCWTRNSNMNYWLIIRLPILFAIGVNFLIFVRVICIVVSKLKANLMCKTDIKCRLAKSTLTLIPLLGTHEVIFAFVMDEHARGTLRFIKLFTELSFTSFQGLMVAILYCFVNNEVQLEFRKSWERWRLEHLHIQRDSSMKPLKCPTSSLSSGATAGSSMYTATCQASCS
SMILES,test,system,conditions,EC50 [nM]
CC[C@H](C)[C@H](NC(=O)[C@H](Cc1ccccc1)NC(=O)[C@H](CCC(=O)O)NC(=O)[C@H](CCCCN)NC(=O)[C@H](C)NC(=O)[C@H](C)NC(=O)[C@H](CCC(N)=O)NC(=O)CNC(=O)[C@H](CCC(=O)O)NC(=O)[C@H](CC(C)C)NC(=O)[C@H](Cc1ccc(O)cc1)NC(=O)[C@H](CO)NC(=O)[C@H](CO)NC(=O)[C@@H](NC(=O)[C@H](CC(=O)O)NC(=O)[C@H](CO)NC(=O)[C@@H](NC(=O)[C@H](Cc1ccccc1)NC(=O)[C@@H](NC(=O)CNC(=O)[C@@H](N)CCC(=O)O)[C@@H](C)O)[C@@H](C)O)C(C)C)C(=O)N[C@@H](C)C(=O)N[C@@H](Cc1c[nH]c2ccccc12)C(=O)N[C@@H](CC(C)C)C(=O)N[C@H](C(=O)N[C@@H](CCCCN)C(=O)NCC(=O)N[C@@H](CCCNC(=N)N)C(N)=O)C(C)C,"cAMP, agonist",,,1120
COc1ccc(-c2cc(C(F)(F)F)nc(NCc3ccccc3)n2)cc1,"cAMP accumulation, positive allosteric modulator",HEK-293T overexpressing GLP1R,with: EC20 GLP-1,20000 ± 21000
CC[C@H](C)[C@H](NC(=O)[C@H](Cc1ccccc1)NC(=O)[C@H](CCC(=O)O)NC(=O)[C@H](CCCCN)NC(=O)[C@H](C)NC(=O)[C@H](C)NC(=O)[C@H](CCC(N)=O)NC(=O)CNC(=O)[C@H](CCC(=O)O)NC(=O)[C@H](CC(C)C)NC(=O)[C@H](Cc1ccc(O)cc1)NC(=O)[C@H](CO)NC(=O)[C@H](CO)NC(=O)[C@@H](NC(=O)[C@H](CC(=O)O)NC(=O)[C@H](CO)NC(=O)[C@@H](NC(=O)[C@H](Cc1ccccc1)NC(=O)[C@@H](NC(=O)CNC(=O)[C@H](Cc1ccc([N+](=O)[O-])cc1)NC(=O)[C@H](C)NC(=O)[C@@H](N)Cc1c[nH]cn1)[C@@H](C)O)[C@@H](C)O)C(C)C)C(=O)N[C@@H](C)C(=O)N[C@@H](Cc1c[nH]c2ccccc12)C(=O)N[C@@H](CC(C)C)C(=O)N[C@H](C(=O)N[C@@H](CCCCN)C(=O)NCC(=O)N[C@@H](CCCNC(=N)N)C(=O)NCC(=O)O)C(C)C,agonist,,,160 ± 50
CC[C@@H](C)[C@@H](NC(=O)[C@@H](C)NC(=O)[C@@H](CCC(=O)O)NC(=O)[C@H](NC(=O)[C@@H](CC(C)C)NC(=O)[C@@H](CCC(=O)O)NC(=O)CNC(=O)[C@@H](C)NC(=O)[C@@H](C)NC(=O)[C@@H](CC(C)C)NC(=O)[C@H](NC(=O)[C@@H](Cc1ccccc1)NC(=O)[C@@H](CC(C)C)NC(=O)[C@@H](CCC(=O)O)NC(=O)[C@@H](CC(C)C)NC(=O)[C@@H](Cc1ccccc1)NC(=O)[C@@H](C)NC(=O)[C@@H](CCCCN)NC(=O)CNC(=O)[C@H](N)CCCNC(=N)N)[C@H](C)CC)[C@H](C)CC)C(=O)N[C@H](CC(=O)O)C(=O)N[C@H](CCCNC(=N)N)C(=O)N[C@@H](C(=O)N[C@H](Cc1ccccc1)C(=O)N[C@@H](C(=O)NCC(=O)N[C@H](CCC(=O)O)C(=O)N[C@H](C)C(=O)N[C@H](Cc1c[nH]cn1)C(=O)O)[C@H](C)O)[C@H](C)O,"reporter gene, agonist, luciferase",,,2200
CC[C@H](C)[C@H](NC(=O)[C@H](Cc1ccccc1)NC(=O)[C@H](CCC(=O)O)NC(=O)[C@H](CCCCN)NC(=O)[C@H](C)NC(=O)[C@H](C)NC(=O)[C@H](CCC(N)=O)NC(=O)CNC(=O)[C@H](CCC(=O)O)NC(=O)[C@H](CC(C)C)NC(=O)[C@H](Cc1ccc(O)cc1)NC(=O)[C@H](CO)NC(=O)[C@H](CO)NC(=O)C(C)(C)NC(=O)[C@H](CC(=O)O)NC(=O)[C@H](CO)NC(=O)[C@@H](NC(=O)[C@H](Cc1ccccc1)NC(=O)[C@@H](NC(=O)CNC(=O)[C@H](CCC(=O)O)NC(=O)[C@H](C)NC(=O)[C@@H](N)Cc1c[nH]cn1)[C@@H](C)O)[C@@H](C)O)C(=O)N[C@@H](C)C(=O)N[C@@H](Cc1c[nH]c2ccccc12)C(=O)N[C@@H](CC(C)C)C(=O)N[C@H](C(=O)N[C@@H](CCCCN)C(=O)NCC(=O)N[C@@H](CCCNC(=N)N)C(=O)NCC(N)=O)C(C)C,"cAMP, agonist, luciferase",,,0.158
COc1ccccc1-c1cc(C(F)(F)F)nc(S(=O)(=O)CCCC(=O)Nc2ccn(Cc3ccc(C)cc3)n2)n1,"cAMP, agonist",,,3700
CC[C@H](C)[C@H](NC(=O)[C@H](Cc1ccccc1)NC(=O)[C@H](CCC(=O)O)NC(=O)[C@H](CCCCN)NC(=O)[C@H](C)NC(=O)[C@H](C)NC(=O)[C@H](CCC(N)=O)NC(=O)CNC(=O)[C@H](CCC(=O)O)NC(=O)[C@H](CC(C)C)NC(=O)[C@H](Cc1ccc(O)cc1)NC(=O)[C@H](CO)NC(=O)[C@H](CO)NC(=O)[C@@H](NC(=O)[C@H](CC(=O)O)NC(=O)[C@H](CO)NC(=O)[C@@H](NC(=O)[C@H](Cc1ccccc1)NC(=O)[C@@H](NC(=O)CNC(=O)[C@H](CCC(=O)O)NC(=O)[C@H](C)NC(=O)[C@@H](N)Cc1c[nH]cn1)[C@@H](C)O)[C@@H](C)O)C(C)C)C(=O)N[C@@H](C)C(=O)N[C@@H](Cc1c[nH]c2ccccc12)C(=O)N[C@@H](CC(C)C)C(=O)N[C@H](C(=O)N[C@@H](CCCNC(=N)N)C(=O)NCC(=O)N[C@@H](CCCNC(=N)N)C(N)=O)C(C)C,"reporter gene, agonist, luciferase",,,4.1
CC[C@H](C)[C@H](NC(=O)[C@H](CC(N)=O)NC(=O)[C@H](CC(N)=O)NC(=O)[C@H](CCCNC(=N)N)NC(=O)[C@H](CC(N)=O)NC(=O)[C@H](CCCNC(=N)N)NC(=O)[C@H](CCCCN)NC(=O)[C@@H](NC(=O)[C@H](CC(N)=O)NC(=O)[C@H](CCSC)NC(=O)[C@H](CC(C)C)NC(=O)[C@H](Cc1c[nH]c2ccccc12)NC(=O)[C@H](CS)NC(=O)[C@@H](NC(=O)[C@H](Cc1ccccc1)NC(=O)[C@H](CC(=O)O)NC(=O)[C@H](CCC(N)=O)NC(=O)[C@H](C)NC(=O)[C@H](CCCNC(=N)N)NC(=O)[C@H](CS)NC(=O)[C@H](CCC(=O)O)NC(=O)[C@H](CC(=O)O)NC(=O)[C@H](CC(C)C)NC(=O)[C@H](Cc1ccc(O)cc1)NC(=O)[C@H](CCCCN)NC(=O)[C@H](CO)NC(=O)[C@H](Cc1ccc(O)cc1)NC(=O)[C@H](CC(=O)O)NC(=O)[C@H](CO)NC(=O)[C@@H](NC(=O)[C@H](Cc1ccccc1)NC(=O)[C@@H](NC(=O)CNC(=O)[C@H](CCC(N)=O)NC(=O)[C@@H](CO)NC(=O)[C@@H](N)Cc1c[nH]cn1)[C@@H](C)O)[C@@H](C)O)C(C)C)[C@@H](C)O)C(=O)N[C@@H](C)C(N)=O,"reporter gene, agonist, luciferase",,,~400
